{"data": "Assay results gathered from unrelated publications", "USP51": "Ubiquitin carboxyl-terminal hydrolase 51 (USP51, Homo sapiens, UniProt Q70EK9)", "note": "Compare with care: the assays were run in different laboratories.", "sequence of UniProt Q70EK9 (whole entry, looked up)": "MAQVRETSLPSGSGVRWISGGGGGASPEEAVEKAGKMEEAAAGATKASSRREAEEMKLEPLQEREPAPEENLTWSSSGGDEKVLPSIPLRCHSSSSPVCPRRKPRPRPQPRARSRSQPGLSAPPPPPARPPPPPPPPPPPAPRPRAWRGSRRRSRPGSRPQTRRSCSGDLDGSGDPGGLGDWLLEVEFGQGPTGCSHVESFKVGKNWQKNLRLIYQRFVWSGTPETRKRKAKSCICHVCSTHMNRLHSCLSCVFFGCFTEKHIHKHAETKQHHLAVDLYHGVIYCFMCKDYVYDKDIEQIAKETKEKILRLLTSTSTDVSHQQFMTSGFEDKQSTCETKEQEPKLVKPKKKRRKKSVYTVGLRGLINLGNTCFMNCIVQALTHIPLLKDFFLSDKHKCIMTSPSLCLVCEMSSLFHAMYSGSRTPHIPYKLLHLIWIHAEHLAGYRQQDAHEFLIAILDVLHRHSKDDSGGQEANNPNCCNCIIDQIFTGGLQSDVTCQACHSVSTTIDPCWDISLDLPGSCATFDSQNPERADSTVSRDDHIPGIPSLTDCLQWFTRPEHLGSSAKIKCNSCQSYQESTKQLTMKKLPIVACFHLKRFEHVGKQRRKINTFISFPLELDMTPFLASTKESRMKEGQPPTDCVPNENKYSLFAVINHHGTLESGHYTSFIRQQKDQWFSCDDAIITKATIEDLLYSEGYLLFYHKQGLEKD", "sequence of UniProt Q13547 (whole entry, looked up)": "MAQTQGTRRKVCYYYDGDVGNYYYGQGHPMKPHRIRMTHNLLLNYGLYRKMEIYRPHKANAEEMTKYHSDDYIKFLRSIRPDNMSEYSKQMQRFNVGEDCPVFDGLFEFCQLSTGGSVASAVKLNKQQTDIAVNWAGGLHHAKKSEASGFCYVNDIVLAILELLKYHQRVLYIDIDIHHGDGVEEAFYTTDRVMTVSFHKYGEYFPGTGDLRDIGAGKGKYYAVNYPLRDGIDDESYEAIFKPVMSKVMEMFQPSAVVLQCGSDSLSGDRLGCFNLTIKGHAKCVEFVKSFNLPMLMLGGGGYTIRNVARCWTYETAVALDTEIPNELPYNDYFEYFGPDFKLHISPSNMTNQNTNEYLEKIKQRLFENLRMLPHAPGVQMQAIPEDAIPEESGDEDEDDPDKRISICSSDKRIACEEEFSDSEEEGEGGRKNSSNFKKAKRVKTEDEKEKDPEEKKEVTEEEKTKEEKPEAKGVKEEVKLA", "sequence of UniProt Q8TF76 (whole entry, looked up)": "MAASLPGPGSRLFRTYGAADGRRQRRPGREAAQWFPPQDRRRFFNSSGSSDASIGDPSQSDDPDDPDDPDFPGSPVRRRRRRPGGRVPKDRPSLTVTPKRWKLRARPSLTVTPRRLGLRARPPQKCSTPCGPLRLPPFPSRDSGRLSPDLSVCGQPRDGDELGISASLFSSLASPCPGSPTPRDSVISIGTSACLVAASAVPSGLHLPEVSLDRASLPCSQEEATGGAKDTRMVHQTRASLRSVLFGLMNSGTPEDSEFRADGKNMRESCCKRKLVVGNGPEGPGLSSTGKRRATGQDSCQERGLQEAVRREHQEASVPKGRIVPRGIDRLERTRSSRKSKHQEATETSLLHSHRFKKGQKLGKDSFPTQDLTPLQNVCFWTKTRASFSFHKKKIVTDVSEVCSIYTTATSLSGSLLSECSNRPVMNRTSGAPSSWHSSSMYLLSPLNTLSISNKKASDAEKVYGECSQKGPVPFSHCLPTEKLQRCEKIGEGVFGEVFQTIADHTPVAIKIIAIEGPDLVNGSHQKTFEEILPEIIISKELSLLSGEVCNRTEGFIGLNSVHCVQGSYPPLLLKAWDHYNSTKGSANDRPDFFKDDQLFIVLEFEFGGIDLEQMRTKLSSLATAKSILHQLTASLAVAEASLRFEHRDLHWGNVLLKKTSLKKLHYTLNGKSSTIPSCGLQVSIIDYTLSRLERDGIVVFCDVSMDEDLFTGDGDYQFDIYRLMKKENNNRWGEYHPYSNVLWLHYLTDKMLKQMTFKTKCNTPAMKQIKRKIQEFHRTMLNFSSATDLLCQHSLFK", "sequence of UniProt Q13177 (whole entry, looked up)": "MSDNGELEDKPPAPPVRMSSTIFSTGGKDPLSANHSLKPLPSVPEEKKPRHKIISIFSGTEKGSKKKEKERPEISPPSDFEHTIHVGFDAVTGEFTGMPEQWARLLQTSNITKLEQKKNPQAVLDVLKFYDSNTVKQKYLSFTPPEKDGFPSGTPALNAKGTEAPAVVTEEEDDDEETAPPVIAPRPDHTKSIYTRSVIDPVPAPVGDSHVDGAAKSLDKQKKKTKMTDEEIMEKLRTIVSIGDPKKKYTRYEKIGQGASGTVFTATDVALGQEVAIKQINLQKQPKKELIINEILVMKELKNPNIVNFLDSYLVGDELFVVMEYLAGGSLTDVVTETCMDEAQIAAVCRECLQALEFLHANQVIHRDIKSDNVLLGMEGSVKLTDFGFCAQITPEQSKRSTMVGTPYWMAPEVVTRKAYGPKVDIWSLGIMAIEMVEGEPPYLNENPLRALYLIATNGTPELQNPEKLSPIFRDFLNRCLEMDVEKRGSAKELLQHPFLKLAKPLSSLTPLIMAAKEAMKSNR", "sequence of UniProt Q8TDR2 (whole entry, looked up)": "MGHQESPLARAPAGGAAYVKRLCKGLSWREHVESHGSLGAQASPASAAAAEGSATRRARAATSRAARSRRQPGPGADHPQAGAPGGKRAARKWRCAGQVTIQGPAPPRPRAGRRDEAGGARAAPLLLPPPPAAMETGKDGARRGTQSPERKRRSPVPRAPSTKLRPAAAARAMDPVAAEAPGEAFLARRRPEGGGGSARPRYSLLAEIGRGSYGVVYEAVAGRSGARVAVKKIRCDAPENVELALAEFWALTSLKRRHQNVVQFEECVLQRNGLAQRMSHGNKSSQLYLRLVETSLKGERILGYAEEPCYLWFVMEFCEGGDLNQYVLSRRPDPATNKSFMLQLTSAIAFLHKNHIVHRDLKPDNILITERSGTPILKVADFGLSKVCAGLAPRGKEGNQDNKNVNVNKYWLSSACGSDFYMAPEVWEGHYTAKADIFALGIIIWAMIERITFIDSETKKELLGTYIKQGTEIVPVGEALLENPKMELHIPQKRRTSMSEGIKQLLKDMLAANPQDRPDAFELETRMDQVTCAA", "sequence of UniProt P49841 (whole entry, looked up)": "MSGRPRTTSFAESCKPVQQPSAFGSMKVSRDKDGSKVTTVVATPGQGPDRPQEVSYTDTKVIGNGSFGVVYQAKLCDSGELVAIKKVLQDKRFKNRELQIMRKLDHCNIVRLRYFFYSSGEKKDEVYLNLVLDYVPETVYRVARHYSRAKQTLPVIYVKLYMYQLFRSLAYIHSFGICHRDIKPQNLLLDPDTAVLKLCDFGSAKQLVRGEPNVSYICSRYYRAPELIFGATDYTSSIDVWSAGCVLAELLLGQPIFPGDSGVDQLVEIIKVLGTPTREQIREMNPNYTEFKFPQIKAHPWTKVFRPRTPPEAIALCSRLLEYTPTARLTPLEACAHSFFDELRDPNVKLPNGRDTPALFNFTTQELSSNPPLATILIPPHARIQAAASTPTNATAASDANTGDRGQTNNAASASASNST", "sequence of UniProt Q9Y233 (whole entry, looked up)": "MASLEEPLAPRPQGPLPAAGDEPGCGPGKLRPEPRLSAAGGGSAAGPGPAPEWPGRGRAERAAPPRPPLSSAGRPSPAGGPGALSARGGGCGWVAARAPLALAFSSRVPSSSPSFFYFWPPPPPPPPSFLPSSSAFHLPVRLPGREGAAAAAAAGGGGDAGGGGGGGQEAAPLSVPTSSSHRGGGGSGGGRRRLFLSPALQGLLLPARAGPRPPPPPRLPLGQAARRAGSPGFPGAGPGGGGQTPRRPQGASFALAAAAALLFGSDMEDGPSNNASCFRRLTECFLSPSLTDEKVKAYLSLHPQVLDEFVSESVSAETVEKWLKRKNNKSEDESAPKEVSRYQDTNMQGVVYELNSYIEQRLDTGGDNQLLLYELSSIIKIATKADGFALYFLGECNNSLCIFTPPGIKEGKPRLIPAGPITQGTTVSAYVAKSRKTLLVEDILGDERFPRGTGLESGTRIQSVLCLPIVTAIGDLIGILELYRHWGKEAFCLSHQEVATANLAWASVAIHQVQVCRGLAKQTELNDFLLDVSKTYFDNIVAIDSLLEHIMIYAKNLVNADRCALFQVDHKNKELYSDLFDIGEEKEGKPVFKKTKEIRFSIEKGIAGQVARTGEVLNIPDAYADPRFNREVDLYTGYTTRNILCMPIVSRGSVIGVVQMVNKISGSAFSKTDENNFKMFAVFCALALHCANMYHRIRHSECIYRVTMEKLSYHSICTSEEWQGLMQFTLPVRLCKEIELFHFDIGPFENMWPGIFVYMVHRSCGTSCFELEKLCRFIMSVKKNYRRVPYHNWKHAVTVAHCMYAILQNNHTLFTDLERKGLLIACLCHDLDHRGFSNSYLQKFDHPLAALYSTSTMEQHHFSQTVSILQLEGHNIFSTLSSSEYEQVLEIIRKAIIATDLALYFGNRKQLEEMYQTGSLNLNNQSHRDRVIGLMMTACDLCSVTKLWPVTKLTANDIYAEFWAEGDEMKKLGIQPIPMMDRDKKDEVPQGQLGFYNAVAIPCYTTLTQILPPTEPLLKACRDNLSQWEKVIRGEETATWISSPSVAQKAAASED", "sequence of UniProt Q13572 (whole entry, looked up)": "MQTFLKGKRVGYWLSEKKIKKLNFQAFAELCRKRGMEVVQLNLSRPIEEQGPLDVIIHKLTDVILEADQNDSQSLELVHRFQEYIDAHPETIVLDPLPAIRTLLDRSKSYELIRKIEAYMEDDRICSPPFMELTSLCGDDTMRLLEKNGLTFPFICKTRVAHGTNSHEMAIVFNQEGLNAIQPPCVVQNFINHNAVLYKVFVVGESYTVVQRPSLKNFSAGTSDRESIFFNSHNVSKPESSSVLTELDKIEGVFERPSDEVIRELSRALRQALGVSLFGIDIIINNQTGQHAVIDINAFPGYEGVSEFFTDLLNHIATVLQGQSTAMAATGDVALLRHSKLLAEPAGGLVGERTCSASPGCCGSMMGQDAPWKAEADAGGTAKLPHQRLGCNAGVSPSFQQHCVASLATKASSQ"}
{"SMILES": "CCCCCCCCCCCCCCCCCC(=O)O", "target": "USP51", "assay": "enzyme activity, inhibitor", "conditions": "5 µM", "quantity": "inhibition", "value": "13%"}
{"SMILES": "C=CC(=O)N1CCC(COCC(=O)N2CCN(c3nc(-c4cnc(N)nc4C(F)F)nc(N4CCOC[C@@H]4C)n3)CC2)CC1", "target": "STK35 (Homo sapiens, UniProt Q8TDR2)", "assay": "binding, competition with immobilised ligand", "conditions": "1 µM", "quantity": "remaining binding", "value": "94%"}
{"SMILES": "COc1cc2c(c(OC)c1OC)-c1ccc(OC)c(=O)cc1[C@@H](NC(C)=O)CC2", "target": "USP51", "assay": "enzyme activity, inhibitor", "conditions": "5 µM", "quantity": "inhibition", "value": "0%"}
{"SMILES": "CC[C@H](C)[C@H](NC(=O)[C@H](CCC(N)=O)NC(=O)[C@H](CC(C)C)NC(=O)[C@H](CCSC)NC(=O)[C@H](CCCCN)NC(=O)[C@H](CO)NC(=O)[C@H](CO)NC(=O)[C@H](CCSC)NC(=O)[C@H](CC(C)C)NC(=O)[C@H](CC(N)=O)NC(=O)[C@@H](NC(=O)[C@@H](NC(=O)[C@H](CO)NC(=O)[C@H](CC(C)C)NC(=O)[C@H](CS)NC(=O)[C@H](CCCNC(=N)N)NC(=O)[C@H](CC(=O)O)NC(=O)[C@H](Cc1c[nH]c2ccccc12)NC(=O)[C@H](Cc1ccccc1)NC(=O)[C@H](C)NC(=O)[C@H](CCC(=O)O)NC(=O)[C@@H](N)CCCCN)C(C)C)[C@@H](C)CC)C(=O)N[C@@H](CC(N)=O)C(=O)N[C@@H](C)C(=O)O", "target": "GSK3B (Homo sapiens, UniProt P49841)", "assay": "enzyme activity, inhibitor, radiometric", "conditions": "100 µM", "quantity": "inhibition", "value": "-8%"}
{"SMILES": "C=CCS[S+]([O-])CC=C (stereo not drawn)", "target": "USP51", "assay": "enzyme activity, inhibitor", "conditions": "5 µM", "quantity": "inhibition", "value": "0%"}
{"SMILES": "COc1cc(-c2cncc3c2CN(C)Cc2cc(N4CCNCC4)ccc2-3)cc(OC)c1OC", "target": "HASPIN (Homo sapiens, UniProt Q8TF76)", "assay": "enzyme activity, inhibitor", "conditions": "1 µM", "quantity": "remaining activity", "value": "103%"}
{"SMILES": "Cc1cc(O)c(-c2ccc([C@@H](C)CN(C)C)cc2)c2c1[nH]c(=O)c1sccc12", "target": "Inositol-tetrakisphosphate 1-kinase (Homo sapiens, UniProt Q13572)", "assay": "cell-free assay, inhibitor", "conditions": "0.1 µM, lysate", "quantity": "inhibition", "value": "5.69%"}
{"SMILES": "CNc1ncc2c(/C=C/C(=O)N3CCC(OC)CC3)nn(Cc3cccc(C(F)(F)F)c3)c2n1", "target": "MAP3K3 (Homo sapiens, UniProt Q99759)", "assay": "enzyme activity, inhibitor, radiometric", "conditions": "1 µM", "quantity": "remaining activity", "value": "102%"}
{"SMILES": "COc1cc(-c2cc(=O)c3c(O)cc(O)cc3o2)ccc1O", "target": "PTGS2 (Homo sapiens, UniProt P35354)", "assay": "enzyme activity, inhibitor", "conditions": "31.25 µg/mL", "quantity": "inhibition", "value": "100%"}
{"SMILES": "Cc1cc([C@@H](C)Nc2ccccc2C(=O)O)c2nc(N3CCC(F)(F)CC3)c(C#N)c(=O)n2c1", "target": "PAK2 (Homo sapiens, UniProt Q13177)", "assay": "binding, competition with immobilised ligand", "conditions": "10 µM", "quantity": "remaining binding", "value": "100%"}
{"SMILES": "COc1cc(-c2cccc(Cc3ncnc4cc(OC)c(OC)cc34)c2)ccc1CO", "target": "PDE10A (Homo sapiens, UniProt Q9Y233)", "assay": "enzyme activity, inhibitor, FP", "conditions": "0.1 µM", "quantity": "inhibition", "value": "49%"}
{"SMILES": "O=C(NO)c1cc(F)cc(OS(=O)(=O)Oc2ccccc2)c1", "target": "HDAC1 (Homo sapiens, UniProt Q13547)", "assay": "enzyme activity, inhibitor, fluorescence", "conditions": "5 µM", "quantity": "inhibition", "value": "14%"}
{"SMILES": "CN1CC(Oc2cnc(C#N)cc2-c2ccn3nc(NC(=O)C4CC4)cc3c2)C1", "target": "PRKDC (Homo sapiens, UniProt P78527)", "assay": "enzyme activity, inhibitor", "conditions": "1 µM", "quantity": "inhibition", "value": "2%"}
{"SMILES": "CCCCC(=O)Nc1ccc(-c2ccc3ncn(CCC)c(=O)c3c2)cn1", "target": "MAPK4 (Homo sapiens, UniProt P31152)", "assay": "binding, competition with immobilised ligand", "conditions": "0.5 µM", "quantity": "remaining binding", "value": "100%"}
{"SMILES": "NC/C(=C\\F)COc1cccc(Cn2c(=S)[nH]c(=O)c3[nH]cnc32)c1", "target": "Myeloperoxidase (MPO, Homo sapiens, UniProt P05164)", "assay": "enzyme activity, inhibitor, fluorescence", "conditions": "1 µM", "quantity": "inhibition", "value": "99.1%"}
{"note": "For quick reference, copied from above:"}
{"SMILES": "COc1cc(-c2cccc(Cc3ncnc4cc(OC)c(OC)cc34)c2)ccc1CO", "target": "PDE10A (Homo sapiens, UniProt Q9Y233)", "assay": "enzyme activity, inhibitor, FP", "conditions": "0.1 µM", "quantity": "inhibition", "value": "49%"}
{"SMILES": "O=C(NO)c1cc(F)cc(OS(=O)(=O)Oc2ccccc2)c1", "target": "HDAC1 (Homo sapiens, UniProt Q13547)", "assay": "enzyme activity, inhibitor, fluorescence", "conditions": "5 µM", "quantity": "inhibition", "value": "14%"}
